Experimental data pooled from the literature.
A part holds a random share of what one study measured.

Series 1
Target: Histone acetyltransferase KAT6A, both winged helices, GST fusion (KAT6A, Homo sapiens, UniProt Q92794, residues 1-181)
Technique: protein binding microarray
Molecule type: double-stranded DNA, one strand shown
Matrix: in vitro
Tested at: not given
Setting: 8-mer, flanks averaged, mean of 2 arrays, mostly near background
Baseline: not given
Direction: higher = stronger binding
Target sequence (chain): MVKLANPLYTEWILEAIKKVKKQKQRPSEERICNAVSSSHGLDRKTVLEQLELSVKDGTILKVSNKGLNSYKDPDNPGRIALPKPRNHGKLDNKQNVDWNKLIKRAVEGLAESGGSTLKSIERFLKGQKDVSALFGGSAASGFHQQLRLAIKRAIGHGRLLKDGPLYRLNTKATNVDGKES
| Oligonucleotide | E-score |
| --- | --- |
| AGCGTTAT | 0.0942 |
| GTCTGGCA | -0.204 |
| AGGGGCCG | 0.0457 |
| GCGGGGCC | 0.269 |
| CATAGTCA | -0.224 |
| GAACCTGC | -0.135 |
| TCCCACCA | -0.257 |
| TCAGGCGA | -0.0689 |

Series 2
Target: Replicase polyprotein 1ab, nsp13 helicase (rep, Severe acute respiratory syndrome coronavirus 2, UniProt P0DTD1)
Action: inhibitor
Tested at: 20 µM
| SMILES | inhibition |
| --- | --- |
| CS(=O)(=O)c1ccc(C2=C(c3ccccc3)C(=O)OC2)cc1 | 1.16% |
| Cc1ccc(S(=O)(=O)OCC(=O)Nc2ccc(C(=O)O)c(O)c2)cc1 | 3.11% |
| COc1ccc(-c2coc3cc(O)cc(O)c3c2=O)cc1 | -0.4% |
| O=C(O)c1cccc(-c2noc(-c3ccccc3F)n2)c1 | -3.85% |
| O=C1CCc2cc(OCCCCc3nnnn3C3CCCCC3)ccc2N1 | 3.73% |
| COc1cc([C@H]2Oc3ccc([C@H]4Oc5cc(O)cc(O)c5C(=O)[C@@H]4O)cc3O[C@@H]2CO)ccc1O | 4.78% |
| O=[N+]([O-])c1ccc2nc(COCc3nc4ccc([N+](=O)[O-])cc4[nH]3)[nH]c2c1 | 5.4% |
| CCC(=O)NCC[C@@H]1CCc2ccc3c(c21)CCO3 | 6.8% |
| Cc1ccc(O)c(N=Nc2ccccc2)n1 | 5.96% |
| N#CN1CCCC1 | 3.47% |
| C=C1C[C@@]2(O)O[C@@]3(C[C@H]2C(C)C)[C@@H](C)CC[C@@H]13 | 5.41% |
| C=C1C[C@]23C[C@@]1(O)CC[C@H]2[C@@]12C=C[C@H](O)[C@@](C)(C(=O)O1)[C@H]2[C@@H]3C(=O)O | -4.04% |
| CC(C)(N)C(=O)N[C@H](COCc1ccccc1)C(=O)N1CCC2(CC1)CN(S(C)(=O)=O)c1ccccc12 | 5.8% |
| CC(O)c1cc(C(=O)N[C@@H](C)Cn2ccc(-c3ccc(C#N)c(Cl)c3)n2)n[nH]1 (some centres unmarked) | 1.42% |
| Cc1ccc([N+](=O)[O-])cc1S(=O)(=O)N(C)C | -5.03% |
| O=C(/C=C/c1ccc(O)c(O)c1)O[C@H](Cc1ccc(O)c(O)c1)C(=O)O | 17.6% |
| O=C(c1c(F)ccc(NS(=O)(=O)N2CC[C@@H](F)C2)c1F)c1c[nH]c2ncc(-c3cnc(C4CC4)nc3)cc12 | 5.56% |
| c1ccc2c(Oc3nc(Nc4ccc(N5CCOCC5)cc4)c4ncn(C5CCCCC5)c4n3)cccc2c1 | 2% |
| CC(C)N(CCCNC(=O)Nc1ccc(C(C)(C)C)cc1)C[C@H]1O[C@@H](n2cc(Br)c3c(N)ncnc32)[C@H](O)[C@@H]1O | 8.73% |
| Clc1cccc(Cl)c1CSc1nnc(-c2cnccn2)s1 | 3.26% |
| CN(C)/N=N/c1[nH]cnc1C(N)=O | 4.59% |
| CN(C(=O)CN(CCO)CC(=O)N(C)C(C)(C)Cc1ccccc1)C(C)(C)Cc1ccccc1 | 2.31% |
| C1=N/C2=N/c3ccc(OCCN4CCCC4)c(c3)COC/C=C/COCc3cccc(c3)C(=C1)N2 | 17.2% |
| CCCn1c(=O)[nH]c2nc(-c3ccc(S(=O)(=O)O)cc3)[nH]c2c1=O | 4.27% |
| NC1CCN(c2c(F)cc3c(=O)c(C(=O)O)cn(C4CC4)c3c2Cl)C1 (centres unmarked) | 1.14% |

Series 3
Target: Hepatocyte nuclear factor 3-beta, forkhead domain (FOXA2, Homo sapiens, UniProt Q9Y261, residues 142-269)
Technique: protein-binding microarray
Molecule type: double-stranded DNA, one strand shown
Matrix: in vitro
Tested at: not given
Setting: k-mer, scored over probes, only values ≥0.25
Direction: higher = stronger binding
Construct (chain): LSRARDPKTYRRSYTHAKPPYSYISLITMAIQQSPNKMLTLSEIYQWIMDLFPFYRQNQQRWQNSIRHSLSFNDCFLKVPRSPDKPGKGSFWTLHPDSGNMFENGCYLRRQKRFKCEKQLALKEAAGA
| Oligonucleotide | E-score |
| --- | --- |
| CATATACG | 0.325 |
| CAATATTG | 0.325 |
| CATCACTA | 0.275 |
| CATTGTTA | 0.276 |
| ATAATACA | 0.374 |
| CTACAATC | 0.274 |
| GTGTAAAC | 0.317 |
| AGTCTTAT | 0.349 |

Series 4
Cell line: HEK-293T/ACE2
Tested at: concentration not given
Time: 16 (unit not given)
Baseline: vehicle
| SMILES | viability [%] |
| --- | --- |
| O=C(NC1CCN(CCCCC2(C(=O)NCC(F)(F)F)c3ccccc3-c3ccccc32)CC1)c1ccccc1-c1ccc(C(F)(F)F)cc1 | 58.4 |
| Oc1c(Cl)cc(Cl)c2cccnc12 | 88.1 |
| CC(=O)[C@H]1CC[C@H]2[C@@H]3CCC4=CC(=O)CC[C@]4(C)[C@H]3CC[C@]12C | 103 |

Series 5
Target: Phosphate system positive regulatory protein PHO4, full length, GST-tagged (PHO4, Saccharomyces cerevisiae, UniProt P07270, residues 1-312)
Technique: competition protein-binding microarray
Molecule type: double-stranded DNA, one strand shown
Matrix: in vitro
Tested at: 2 µM
Setting: whole 60-bp probe, lowest competitor level
Added: Cbf1 competitor, 0.05 µM
Direction: higher = stronger binding
Residues (chain): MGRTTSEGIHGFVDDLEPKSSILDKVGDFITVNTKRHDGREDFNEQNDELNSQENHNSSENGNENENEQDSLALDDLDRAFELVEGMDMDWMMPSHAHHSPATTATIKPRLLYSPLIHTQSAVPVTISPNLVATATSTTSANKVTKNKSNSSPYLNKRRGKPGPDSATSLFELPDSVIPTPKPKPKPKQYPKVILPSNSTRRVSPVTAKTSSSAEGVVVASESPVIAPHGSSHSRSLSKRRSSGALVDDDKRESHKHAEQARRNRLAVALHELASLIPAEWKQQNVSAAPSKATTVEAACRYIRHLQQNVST
| Oligonucleotide | fluorescence intensity |
| --- | --- |
| CTTCTGTAAATTTGAGTCGTGGGTGGACGCGCCCCGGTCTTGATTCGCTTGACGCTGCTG | 6650 a.u. |
| AAATTACTAAGTTGACACGTGTTTTACCCCGTATGAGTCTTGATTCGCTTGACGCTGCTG | 20000 a.u. |
| CGGGGTTAAGTTTGCGCCGTGGGTGGCTTGCAGCAGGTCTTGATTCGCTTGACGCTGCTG | 6010 a.u. |
| AAATTACTAAGTTGGTGAGTGGGTGACGCCGTATGAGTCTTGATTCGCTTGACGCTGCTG | 4470 a.u. |
| TGTGCTTGGTTTGGAAACGTGCAAACACCTTACCTGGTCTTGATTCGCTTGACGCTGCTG | 11700 a.u. |
| GAGCAAGTTTCTTCACGTGTGACGCTGGCACATTAGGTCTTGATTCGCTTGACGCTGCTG | 12900 a.u. |
| GCCGCATTGCACCTTGTCGTGATGGATTCTAAGTACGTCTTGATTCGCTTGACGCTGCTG | 5230 a.u. |
| CTTCTGTAAATTTGTCTGGTGGGTGGACGCGCCCCGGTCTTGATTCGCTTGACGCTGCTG | 4470 a.u. |

Single results of other studies
| Compound | target | read-out | action | tested at | setting | quantity | result |
| --- | --- | --- | --- | --- | --- | --- | --- |
| CC1=C(O)C(=O)[C@@H]2O[C@@H]2C1=O | Replicase polyprotein 1ab, main protease (rep, Severe acute respiratory syndrome coronavirus 2, UniProt P0DTD1) | enzyme activity | inhibitor | 20 µM | primary screen | inhibition | 65.4% |

For quick reference, copied from above (series 3):
| Oligonucleotide | E-score |
| --- | --- |
| CATCACTA | 0.275 |
| CATATACG | 0.325 |
| CAATATTG | 0.325 |
| AGTCTTAT | 0.349 |
| ATAATACA | 0.374 |
| GTGTAAAC | 0.317 |
| CTACAATC | 0.274 |
